# Assay results of several laboratories.
# ± gives the spread as reported.
# Target: Delta-type opioid receptor (Oprd1, Rattus norvegicus, UniProt P33533)
# Sequence of UniProt P33533 (whole entry, looked up): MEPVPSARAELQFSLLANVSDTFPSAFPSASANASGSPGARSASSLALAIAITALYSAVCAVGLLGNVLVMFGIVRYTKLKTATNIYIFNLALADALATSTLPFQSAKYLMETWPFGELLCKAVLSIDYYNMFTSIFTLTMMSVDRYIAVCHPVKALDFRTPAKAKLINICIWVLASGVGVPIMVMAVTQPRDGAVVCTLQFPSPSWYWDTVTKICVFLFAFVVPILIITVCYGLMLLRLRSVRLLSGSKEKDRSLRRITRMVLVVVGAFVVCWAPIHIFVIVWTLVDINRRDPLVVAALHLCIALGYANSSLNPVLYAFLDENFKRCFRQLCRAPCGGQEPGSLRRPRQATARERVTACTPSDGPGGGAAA
SMILES,assay,system,setting,endpoint,result
CC[C@H](C)[C@H](NC(=O)[C@@H](N)Cc1ccc(O)cc1)C(=O)N[C@@H](Cc1ccccc1)C(=O)N[C@@H](CC(N)=O)C(=O)N[C@@H](CC(C)C)C(=O)O,binding,rat brain membranes,with: [3H]DPDPE,IC50,82.5 ± 8.1e-08 nM
Cc1cc(O)cc(C)c1CC(N)C(=O)NC1CCNc2ccc(CN3CCCCC3)cc21 (stereo not shown),"ligand displacement, radioligand",,cell membranes,Ki,120 nM
Cc1cc(O)cc(C)c1C[C@H](N)C(=O)N[C@@H]1CSCCSC(C)(C)[C@H](C(=O)N[C@@H](CO[C@@H]2O[C@H](CO)[C@@H](O)[C@H](O)[C@H]2O)C(N)=O)NC(=O)C2(Cc3ccccc3C2)NC1=O,antagonist,,with: DPDPE,Kd,6.1 ± 1.5 nM
CCCc1cc(Cc2ccccc2)cc2c1NCCC2NC(=O)C(N)Cc1c(C)cc(O)cc1C (stereo not shown),"GTPγS binding, agonist, radiometric",,cell membranes,EC50,310 nM
CC(C)C[C@H](NC(=O)[C@H](Cc1cccc2ccccc12)NC(=O)CNC(=O)[C@H](NC(=O)[C@@H](N)Cc1ccc(O)cc1)[C@H](C)O)C(=O)N[C@@H](CO)C(N)=O,"GTPγS binding, agonist, radiometric",,cell membranes,EC50,35 nM
Cc1cc(O)cc(C)c1CC(N)C(=O)NC1CCNc2ccc(Cc3ccoc3)cc21 (stereo not shown),"ligand displacement, radioligand",,cell membranes,Ki,18 nM
Cc1cc(O)cc(C)c1C[C@H](N)C(=O)N1Cc2ccccc2C[C@H]1CN[C@@H](Cc1ccccc1)C(=O)N[C@@H](Cc1ccccc1)C(N)=O,"cAMP inhibition, agonist",C6 expressing target,with: forskolin,IC50,2.2 ± 0.9 nM
CC(C)C[C@H](NC(=O)C1(NC(=O)CNC(=O)[C@H](NC(=O)[C@@H](N)Cc2ccc(O)cc2)[C@H](C)O)Cc2ccccc2C1)C(=O)N[C@@H](CO)C(N)=O,"ligand displacement, radioligand",,"pH 7.4, cell membranes",Ki,> 5000 nM
Cc1cc(O)cc(C)c1CC(N)C(=O)NC1CCNc2c(CN3CCOCC3)cc(Cc3ccccc3)cc21 (stereo not shown),"GTPγS binding, agonist, radiometric",,cell membranes,EC50,180 nM
Cc1cc(O)cc(C)c1CC(N)C(=O)NC1CCNc2ccc(Cc3ccc4c(c3)OCO4)cc21 (stereo not shown),"ligand displacement, radioligand",,cell membranes,Ki,4.3 nM
CC(C)C[C@H](NC(=O)[C@H](Cc1ccc2ccccc2c1)NC(=O)CNC(=O)[C@H](NC(=O)[C@@H](N)Cc1ccc(O)cc1)[C@H](C)O)C(=O)N[C@@H](CO[C@@H]1O[C@H](CO)[C@@H](O)[C@H](O)[C@H]1O)C(N)=O,"GTPγS binding, agonist, radiometric",,cell membranes,EC50,26 nM
Cc1cc(O)cc(C)c1CC(N)C(=O)NC1CCNc2ccc(Cc3ccc4ncccc4c3)cc21 (stereo not shown),"ligand displacement, radioligand",,cell membranes,Ki,23 nM
Cc1cc(O)cc(C)c1CC(N)C(=O)NC1CCNc2c(Cc3ccccc3)cc(Cc3ccccc3)cc21 (stereo not shown),"ligand displacement, radioligand",,cell membranes,Ki,1.6 nM

# Some of these lines once more:
SMILES,assay,system,setting,endpoint,result
CC(C)C[C@H](NC(=O)C1(NC(=O)CNC(=O)[C@H](NC(=O)[C@@H](N)Cc2ccc(O)cc2)[C@H](C)O)Cc2ccccc2C1)C(=O)N[C@@H](CO)C(N)=O,"ligand displacement, radioligand",,"pH 7.4, cell membranes",Ki,> 5000 nM
Cc1cc(O)cc(C)c1CC(N)C(=O)NC1CCNc2ccc(Cc3ccc4c(c3)OCO4)cc21 (stereo not shown),"ligand displacement, radioligand",,cell membranes,Ki,4.3 nM
